Measurements gathered from unrelated publications.
Numbered parts are unrelated; each lists some results of a single study.

Study 1
Target: Sal-like protein 4, full length isoform A (SALL4, Homo sapiens, UniProt Q9UJQ4, residues 1-1053)
Chain of UniProt Q9UJQ4 (whole entry, looked up): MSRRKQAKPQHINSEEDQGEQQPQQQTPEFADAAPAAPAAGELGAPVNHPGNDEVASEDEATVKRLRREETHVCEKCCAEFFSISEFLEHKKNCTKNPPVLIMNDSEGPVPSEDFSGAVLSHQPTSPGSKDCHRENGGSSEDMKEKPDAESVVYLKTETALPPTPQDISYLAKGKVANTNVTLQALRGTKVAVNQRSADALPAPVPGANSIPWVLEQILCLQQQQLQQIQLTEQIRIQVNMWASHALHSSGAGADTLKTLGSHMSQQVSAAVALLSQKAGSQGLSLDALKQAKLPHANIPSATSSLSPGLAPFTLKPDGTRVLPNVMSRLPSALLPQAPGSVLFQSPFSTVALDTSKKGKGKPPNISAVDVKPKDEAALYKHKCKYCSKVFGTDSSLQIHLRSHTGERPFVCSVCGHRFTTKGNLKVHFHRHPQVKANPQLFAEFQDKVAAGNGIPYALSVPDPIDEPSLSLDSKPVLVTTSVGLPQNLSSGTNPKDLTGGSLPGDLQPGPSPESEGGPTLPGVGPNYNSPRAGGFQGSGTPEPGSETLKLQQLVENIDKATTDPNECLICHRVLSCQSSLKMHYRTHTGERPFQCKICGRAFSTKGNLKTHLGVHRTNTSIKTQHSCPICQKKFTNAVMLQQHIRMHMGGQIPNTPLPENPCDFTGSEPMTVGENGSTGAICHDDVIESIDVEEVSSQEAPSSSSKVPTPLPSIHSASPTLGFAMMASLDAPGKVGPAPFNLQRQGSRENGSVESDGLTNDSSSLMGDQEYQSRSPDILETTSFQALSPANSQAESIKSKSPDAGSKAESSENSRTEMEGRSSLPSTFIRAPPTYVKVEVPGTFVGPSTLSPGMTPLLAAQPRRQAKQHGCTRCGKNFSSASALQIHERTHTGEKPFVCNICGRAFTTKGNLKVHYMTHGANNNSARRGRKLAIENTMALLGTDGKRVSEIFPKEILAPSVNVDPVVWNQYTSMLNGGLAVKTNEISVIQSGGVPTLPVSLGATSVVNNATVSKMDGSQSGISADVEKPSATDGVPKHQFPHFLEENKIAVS
Technique: universal PBM
Form: double-stranded DNA, one strand shown
Matrix: in vitro
Tested at: 600 nM
Setting: 8-mer, flanks averaged, mean of replicates
Reading: higher = stronger binding
Strand | E-score
ACGGAGAC | -0.0569
CCTCAACA | 0.126
GCAACCGC | -0.191
ATAACCTA | 0.286

Study 2
Target: Interferon regulatory factor 7, full length, phosphomimetic (IRF7, Homo sapiens, UniProt Q92985, residues 1-503, S471D/S472D/S475D/S476D/S477D/S483D/S484D/S487D)
Chain of UniProt Q92985 (whole entry, unmodified, looked up): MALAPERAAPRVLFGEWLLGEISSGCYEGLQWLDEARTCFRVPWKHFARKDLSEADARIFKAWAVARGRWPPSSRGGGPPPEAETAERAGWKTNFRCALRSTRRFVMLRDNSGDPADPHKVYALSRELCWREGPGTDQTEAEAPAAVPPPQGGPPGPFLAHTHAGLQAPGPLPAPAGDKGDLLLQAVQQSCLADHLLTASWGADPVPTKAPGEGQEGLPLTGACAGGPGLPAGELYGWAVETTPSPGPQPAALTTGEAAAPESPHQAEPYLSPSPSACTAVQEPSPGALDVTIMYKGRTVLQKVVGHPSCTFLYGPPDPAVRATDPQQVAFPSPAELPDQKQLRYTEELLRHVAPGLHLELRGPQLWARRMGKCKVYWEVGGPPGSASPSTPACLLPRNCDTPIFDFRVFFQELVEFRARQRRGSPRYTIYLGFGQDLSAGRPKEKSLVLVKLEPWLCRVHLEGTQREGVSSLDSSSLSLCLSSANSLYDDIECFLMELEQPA
Technique: protein-binding microarray
Form: double-stranded DNA, one strand shown
Matrix: in vitro
Tested at: 2200 nM top
Setting: 60-bp whole probe
Together with: salmon DNA 0.4 mg/ml
Baseline: random background probes
Reading: higher = stronger binding
All sequences stand within: GCCTAGCAC … GTCTTGATTCGCTTGACGCTGCTG
Strand | fitted relative affinity [z-score]
GTAGGTTTCCTACTGCTTTAGTGCTAG | 1.08
TTAGGTATCGGTATGGGTTAGTGCTAG | 0.704
TTAGGACTGGGTCTCCGTTAGTGCTAG | -0.59
TTAGGTATGGGGTATCGGTTAGTGCTA | 0.0674
GACGGTTTACTACTGCTGACGTGCTAG | 1.14

Study 3
Target: Histone acetyltransferase KAT6A, both winged helices, GST fusion (KAT6A, Homo sapiens, UniProt Q92794, residues 1-181)
Technique: protein binding microarray
Form: double-stranded DNA, one strand shown
Matrix: in vitro
Tested at: not given
Setting: 8-mer, flanks averaged, mean of 2 arrays, mostly near background
Baseline: not given
Reading: higher = stronger binding
Residues (chain): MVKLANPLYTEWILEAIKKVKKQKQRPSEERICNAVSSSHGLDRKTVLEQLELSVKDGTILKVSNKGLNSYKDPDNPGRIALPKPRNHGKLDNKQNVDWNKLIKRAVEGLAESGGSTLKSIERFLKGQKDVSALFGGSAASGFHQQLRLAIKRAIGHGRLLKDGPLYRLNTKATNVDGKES
Strand | E-score
CCCGTCAA | 0.251
CATCGGAC | 0.0486
AGGCTATC | -0.0452
CCGTATGA | 0.154
CTACTAGC | -0.012
AAACCTGG | -0.0674

Mixed results
Substance | target | assay | system | conditions | scale | endpoint | value
PhoQ, residues 284 288 289 292 302 303 TSTLRA | PhoP, residues 12 14 15 18 19 LWHCS (Escherichia coli, UniProt P23836) | Sort-seq, measured: YFP reporter | E. coli | PhoQ-PhoP variant library, together with: 10 µM Mg2+ | baseline: high Mg2+ state, higher = stronger signaling | fold induction | 1.01

For quick reference, copied from above (study 1):
Strand | E-score
ACGGAGAC | -0.0569
